# Experimental data gathered from unrelated publications.
# Compare with care: the assays were run in different laboratories. Values joined by “and” are separate records of one study, mostly repeats; a detail may differ. ± gives the spread as reported.
# Sequence of UniProt Q13188 (whole entry, looked up): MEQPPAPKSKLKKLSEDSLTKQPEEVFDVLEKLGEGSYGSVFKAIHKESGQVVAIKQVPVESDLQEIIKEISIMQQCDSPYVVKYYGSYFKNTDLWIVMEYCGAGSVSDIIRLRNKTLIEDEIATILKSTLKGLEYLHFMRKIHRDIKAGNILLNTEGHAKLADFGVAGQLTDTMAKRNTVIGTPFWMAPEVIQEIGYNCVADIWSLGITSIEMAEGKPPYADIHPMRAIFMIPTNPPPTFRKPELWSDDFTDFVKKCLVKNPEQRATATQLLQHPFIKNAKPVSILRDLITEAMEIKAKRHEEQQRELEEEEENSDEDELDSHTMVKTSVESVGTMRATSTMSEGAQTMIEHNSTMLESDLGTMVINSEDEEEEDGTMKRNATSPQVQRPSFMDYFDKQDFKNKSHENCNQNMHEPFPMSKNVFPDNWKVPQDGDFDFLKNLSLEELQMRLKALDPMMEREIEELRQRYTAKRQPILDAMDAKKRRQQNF
# Sequence of UniProt Q16539 (whole entry, looked up): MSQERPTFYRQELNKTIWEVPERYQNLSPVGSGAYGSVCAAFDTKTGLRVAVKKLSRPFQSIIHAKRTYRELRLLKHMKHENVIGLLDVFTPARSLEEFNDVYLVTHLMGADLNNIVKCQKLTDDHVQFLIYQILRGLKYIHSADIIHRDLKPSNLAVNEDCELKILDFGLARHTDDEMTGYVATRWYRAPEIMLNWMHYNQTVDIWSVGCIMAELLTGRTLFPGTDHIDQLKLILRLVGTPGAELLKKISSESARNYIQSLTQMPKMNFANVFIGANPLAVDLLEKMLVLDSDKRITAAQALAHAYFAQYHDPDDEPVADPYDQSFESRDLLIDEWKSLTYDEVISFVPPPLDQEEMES
Compound,target or system,test,system,conditions,how to read,quantity,result
CN(C)[C@H]1C[C@@]23CC[C@@]4(O2)C(=CC[C@]2(C)[C@@H](c5ccc6ccncc6c5)CC[C@H]24)C=C3[C@@H](O)[C@@H]1O,"Mitogen-activated protein kinase 14 (MAPK14, Homo sapiens, UniProt Q16539)","ATP probe labelling, inhibitor, KiNativ profiling",,1 µM,,inhibition,8.7%
CN1Cc2cc(Cl)ccc2-n2c(nnc2C2CCN(c3cccc([18F])n3)CC2)C1,,,"C57BL/6 mouse male, testis","intravenous, 3.7 MBq, 1 min",,tissue uptake,0.47 ± 0.08 %ID/g
[2H]C([2H])([18F])[C@]([2H])(N)C(=O)O,,radio-HPLC,saline formulation,up to 3 h,,radiochemical purity,> 98%
Cc1ccccc1-c1ccc(-c2nc(-c3ccc(CN(C)CCCC(=O)O)c([18F])c3)no2)cc1C(F)(F)F,,,"rat, muscle",2 h,,tracer uptake,0.1 %ID/g
CCOP(=O)(CNC(=O)CN1CCN(CC(=O)NCP(=O)(OCC)OCC)CCN(CC(=O)NCP(=O)(OCC)OCC)CCN(CC(=O)NCP(=O)(OCC)OCC)CC1)OCC.[177Lu+3],,,"Sprague-Dawley rat, bone","intravenous, dose not given, 2 h",,biodistribution,0.998 ± 0.359 % injected dose/organ
C=C/C=C/C[C@@H](C)[C@@H](O)[C@H]1C(=O)N[C@@H](CC)C(=O)N(C)CC(=O)N(C)[C@@H](CC(C)C)C(=O)N[C@@H](C(C)C)C(=O)N(C)[C@@H](CC(C)C)C(=O)N[C@@H](C)C(=O)N[C@H](C)C(=O)N(C)[C@@H](CC(C)C)C(=O)N(C)[C@@H](CC(C)C)C(=O)N(C)[C@@H](C(C)C)C(=O)N1C,,,"Wistar Kyoto rat, male, plasma","ip, 0.5 mg/kg/day, day 28, at sacrifice",,plasma total Ca2+,2.63 ± 0.05 mmol/L
CC[C@H](C)[C@H](NC(=O)[C@H](CO)NC(=O)[C@H](Cc1ccc(O)cc1)NC(=O)[C@H](Cc1ccc(O)cc1)NC(=O)[C@H](CC(N)=O)NC(=O)CNC(=O)[C@H](CO)NC(=O)[C@H](Cc1ccc(O)cc1)NC(=O)[C@H](CO)NC(=O)[C@H](CO)NC(=O)[C@H](CC(N)=O)NC(=O)COCCOCCNC(=O)CN1CCN(CC(=O)O)CCN(CC(=O)O)CCN(CC(=O)O)CC1)C(=O)N[C@@H](CC(C)C)C(N)=O [copper-64 labelled],,dynamic PET,"mouse, tamoxifen-induced PDAC, tumor","intravenous, 0.1 µg/mouse, 3.5 min",,tumour uptake,14.5 %ID/mL
Cc1nc2cccc(OCC(C)(C)C(=O)NC(C)C)c2c(N)c1C(=O)[O-].[Na+],Salmonella typhimurium,,TA98,"0.051 mg per plate, without S9, preincubation",,revertant colonies per plate,22 ± 1
CC(C)(C)C(=O)OCOP(=O)(OCOC(=O)C(C)(C)C)C1CCCN(O)C1=O (stereo not shown),ACHN,,,,,log LC50,> -4 log M
CS(C)(=O)=Nc1ccc(-c2ccc(-c3nc4cc(O[C@@H]5CO[C@H]6[C@@H]5OC[C@H]6O)[nH]c4cc3F)cc2)cc1,"Serine/threonine-protein kinase mTOR, with FKBP12 (MTOR, Homo sapiens, UniProt P42345)",kinase activity,,10 µM,,inhibition,0%
O=C(c1cc(Cc2n[nH]c(=O)c3ccccc23)ccc1F)N1CC(CNC2CC2)C1,,,"Wistar Han rat, female, blood","oral, 30 mg/kg daily, 4 weeks",,haemoglobin,13.1 ± 1.1 g/dL
C[C@@H](Oc1ccc2c(c1)[C@H]1CCN[C@@]1(C)CO2)c1ccccc1,,lipid PAMPA,artificial lipid membrane,"10 µM, 16 h",,recovery,4.9%
CC[C@H](C)[C@H](NC(=O)[C@H](CCCCN)NC(=O)CNC(=O)[C@H](CC(C)C)NC(=O)[C@H](Cc1ccccc1)NC(=O)[C@H](CCCCN)NC(=O)[C@H](CO)NC(=O)[C@H](Cc1ccccc1)NC(=O)[C@H](Cc1c[nH]c2ccccc12)NC(=O)[C@H](CCC(N)=O)NC(=O)[C@@H](NC(=O)[C@H](Cc1ccccc1)NC(=O)CCCCCNC(=O)CN1CCN(CC(=O)O)CCN(CC(=O)O)CCN(CC(=O)O)CC1)C(C)C)C(=O)N[C@@H](CCC(=O)O)C(=O)N1CCC[C@H]1C(=O)N[C@H](CC(=O)O)C(=O)N[C@H](C(=O)N[C@@H](CO)C(=O)N[C@@H](CCC(N)=O)C(=O)N[C@H](C(=O)N[C@@H](CCC(N)=O)C(=O)N[C@@H](CC(=O)O)C(=O)N1CCC[C@H]1C(=O)N[C@@H](CC(N)=O)C(=O)N[C@@H](CC(=O)O)C(=O)N[C@@H](CCC(N)=O)C(=O)N[C@@H](Cc1ccc(O)cc1)C(=O)N[C@@H](CCC(=O)O)C(=O)N1CCC[C@H]1C(=O)N[C@@H](Cc1ccccc1)C(=O)O)C(C)C)C(C)C [copper-64 labelled],,,"female mice, EMT6 tumour-bearing, muscle","2 h, uncleavable control tracer, vehicle-treated",,tissue uptake,0.36 ± 0.05 %ID/g
C#Cc1c(F)ccc2cc(O)cc(-c3ncc4c(N5CC6CCC(C5)N6C(=O)OCOC(=O)CCC)nc(OC[C@@]56CCCN5C[C@H](F)C6)nc4c3F)c12,,chemical stability,simulated intestinal fluid,"1 µM, 30 min",,compound remaining,65.4%
CSCC[C@H](N)C(=O)N[C@@H](C)C(=O)N[C@@H](Cc1c[nH]c2ccccc12)C(=O)N[C@@H](Cc1c[nH]cn1)C(=O)N[C@@H](CC(=O)O)C(=O)N[C@@H](CC(=O)O)C(=O)N[C@@H](CCC(=O)O)C(=O)N[C@@H](CCC(=O)O)C(=O)N[C@@H](Cc1ccccc1)C(=O)N[C@@H](C)C(=O)N[C@@H](CCCNC(=N)N)C(=O)N[C@@H](CCCNC(=N)N)C(=O)N[C@@H](CCCNC(=N)N)C(=O)N[C@@H](CCCNC(=N)N)C(=O)NCCCCCC(=O)NCCCCC(NC(=O)CCCCCNC(=O)[C@H](CCCNC(=N)N)NC(=O)[C@H](CCCNC(=N)N)NC(=O)[C@H](CCCNC(=N)N)NC(=O)[C@H](CCCNC(=N)N)NC(=O)[C@H](C)NC(=O)[C@H](Cc1ccccc1)NC(=O)[C@H](CCC(=O)O)NC(=O)[C@H](CCC(=O)O)NC(=O)[C@H](CC(=O)O)NC(=O)[C@H](CC(=O)O)NC(=O)[C@H](Cc1c[nH]cn1)NC(=O)[C@H](Cc1c[nH]c2ccccc12)NC(=O)[C@H](C)NC(=O)[C@@H](N)CCSC)C(=O)NCCCCC(NC(=O)C(CCCCNC(=O)CCCCCNC(=O)[C@H](CCCNC(=N)N)NC(=O)[C@H](CCCNC(=N)N)NC(=O)[C@H](CCCNC(=N)N)NC(=O)[C@H](CCCNC(=N)N)NC(=O)[C@H](C)NC(=O)[C@H](Cc1ccccc1)NC(=O)[C@H](CCC(=O)O)NC(=O)[C@H](CCC(=O)O)NC(=O)[C@H](CC(=O)O)NC(=O)[C@H](CC(=O)O)NC(=O)[C@H](Cc1c[nH]cn1)NC(=O)[C@H](Cc1c[nH]c2ccccc12)NC(=O)[C@H](C)NC(=O)[C@@H](N)CCSC)NC(=O)CCCCCNC(=O)[C@H](CCCNC(=N)N)NC(=O)[C@H](CCCNC(=N)N)NC(=O)[C@H](CCCNC(=N)N)NC(=O)[C@H](CCCNC(=N)N)NC(=O)[C@H](C)NC(=O)[C@H](Cc1ccccc1)NC(=O)[C@H](CCC(=O)O)NC(=O)[C@H](CCC(=O)O)NC(=O)[C@H](CC(=O)O)NC(=O)[C@H](CC(=O)O)NC(=O)[C@H](Cc1c[nH]cn1)NC(=O)[C@H](Cc1c[nH]c2ccccc12)NC(=O)[C@H](C)NC(=O)[C@@H](N)CCSC)C(N)=O (stereo partly shown),,,"C57BL/6 mouse female, skull","dose not given, 3 h",relative to: total,tissue distribution,17.4% and 16.5% and 17.2%
O=C1NC2(CC2)COc2ncc(F)cc2[C@H]2COCCN2c2ccn3ncc1c3n2,,,"Sprague-Dawley rat, female, blood","oral, 2.5 mg/kg/day, 4 weeks, end of recovery, subacute toxicity",,monocyte percentage,1.5 ± 0.6%
CN1CCCCC1C(=O)NC(Cc1ccc(-c2ccccc2)cc1)B(O)O (stereo not shown),,,"rat, plasma","intravenous, 1 mg/kg",,Vd,4.2 L/kg
CC(C)[C@H]1NC(=O)C[C@H]2/C=C/CCSSC[C@@H](NC1=O)C(=O)N[C@H](Cc1cccc3ccccc13)C(=O)NCC(=O)O2,"Serine/threonine-protein kinase 3 (STK3, Homo sapiens, UniProt Q13188)","enzyme activity, inhibitor",,10 µM,,inhibition,-2.7%
CSCC[C@@H]1NC(=O)[C@H](C(C)C)NC(=O)[C@H](CCCNC(=N)N)NC(=O)[C@@H]2CCCN2C(=O)CNC(=O)[C@@H](NC(=O)CNC(=O)[C@H](CO)NC(=O)CNC(=O)[C@H](CO)NC(=S)Nc2ccc(C[C@H]3CN(CC(=O)O)CCN(CC(=O)O)CCN3CC(=O)O)cc2)CSSC[C@@H](C(N)=O)NC(=O)[C@@H]2CCCN2C(=O)CNC(=O)[C@H](CCC(=O)O)NC(=O)[C@H](CC(=O)O)NC(=O)[C@H](CC(=O)O)NC(=O)CNC(=O)[C@H](CC(C)C)NC(=O)[C@H](Cc2c[nH]cn2)NC(=O)[C@H](CC(C)C)NC(=O)CNC(=O)[C@H](Cc2c[nH]cn2)NC1=O [copper-64 labelled],,dynamic PET,"CD rat, myocardial infarction model, remote myocardium","intravenous, 18.5 MBq, 5 to 60 min",,half-life,19.3 ± 0.9 min
COc1ccccc1-c1n[nH]c2nc(NC3CCN(C(=O)Cc4ccc(F)cc4F)CC3)ncc12,,"bead binding, competition bead pull-down, refers to: LMJF.05.0030",Leishmania donovani extract,10 µM,relative to: vehicle,relative abundance,1.03
Cc1cc(C(=O)Nc2nc3cccc(C)c3n2[C@H]2CCCCN(C(=O)/C=C/CN(C)C)C2)ccn1,Trypanosoma brucei brucei,,CLK1 C215S mutant expressing,"10 x EC50, 36 h",,cell growth,3000% and 4800% and 4130%
N#[11C]c1ccc(-c2csc(NN=C3CCCC3)n2)cc1,,,"C57BL/6 mice, male, kidney","intravenous, 3 MBq, 30 min",,radioactivity uptake,5.89 ± 0.34 %ID/g
COc1cnc2cccc(N3CCc4c(cc(Cn5ccnc5)cc4-c4cn(C)nc4C(F)(F)F)C3=O)c2c1,,,"BALB/c nude mice, MV4-11 xenograft","intraperitoneal, 50 mg/kg, day 31",,body weight,19.8 g and 20.2 g and 23.5 g and 24.5 g and 22.1 g
CCCC[C@H]1C(=O)N(C)[C@@H](CCCC)C(=O)N[C@@H](CCCNC(=O)CN2CCN(CC(=O)O)CCN(CC(=O)O)CCN(CC(=O)O)CC2)C(=O)N[C@H](C(=O)NCC(N)=O)CSCC(=O)N[C@@H](Cc2ccc(O)cc2)C(=O)N(C)[C@@H](C)C(=O)N[C@@H](CC(N)=O)C(=O)N2CCC[C@H]2C(=O)N[C@@H](Cc2c[nH]cn2)C(=O)N[C@@H](CC(C)C)C(=O)N(C)CC(=O)N[C@@H](Cc2c[nH]c3ccccc23)C(=O)N[C@@H](CO)C(=O)N[C@@H](Cc2c[nH]c3ccccc23)C(=O)N1C [gallium-68 labelled],,radio-HPLC,fetal bovine serum,"60 min, 37 °C",,radiochemical purity,98.2%
CC(C)[C@@H]1NC(=O)CNC(=O)[C@H](CC(N)=O)NC(=O)[C@H](CCCNC(=N)N)NC(=O)[C@H](Cc2ccc(O)cc2)NC(=O)[C@H](C(C)C)NC(=O)[C@@H](NC(=O)[C@@H](NC(=O)[C@H](CC(N)=O)NC(=O)[C@H](Cc2c[nH]c3ccccc23)NC(=O)[C@H](C)NC(=O)[C@H](Cc2ccccc2)NC(=O)CNC(=O)[C@H](CCCCN)NC(=O)[C@H](Cc2ccccc2)NC(=O)[C@H](Cc2ccccc2)NC(=O)[C@H](CCCCN)NC(=O)OCC2c3ccccc3-c3ccccc32)C(C)C)CSSC[C@@H](C(=O)N[C@@H](Cc2c[nH]cn2)C(=O)N[C@@H](CCCNC(=N)N)C(=O)N[C@@H](CCCNC(=N)N)C(=O)N[C@@H](C)C(=O)N[C@@H](CC(N)=O)C(N)=O)NC(=O)[C@H](C(C)C)NC(=O)[C@H](CCCNC(=N)N)NC1=O,,,"ICR mice, serum","intraductal mammary, 10 mg/kg, day 5",,phosphorus,3.28 ± 0.19 mmol/L
